Published values from different studies.
Numbers after ± are the reported error.
Target: Proteinase K (PROK, Engyodontium album, UniProt P06873)

CC(C)C[C@H](NC(=O)[C@H](CCCCN)NC(=O)[C@H](CCCNC(=N)N)NC(=O)[C@@H](CC(C)C)NC(=O)[C@H](Cc1c[nH]c2ccccc12)NC(=O)[C@H](CC(=O)O)NC(=O)[C@H](CCCCN)NC(=O)[C@@H](CC(C)C)NC(=O)[C@H](CCCNC(=N)N)NC(=O)[C@H](CCC(N)=O)NC(=O)[C@@H](NC(=O)[C@@H](CC(C)C)NC(=O)[C@H](CCCNC(=N)N)NC(=O)[C@H](CCCCN)NC(=O)[C@H](Cc1c[nH]c2ccccc12)NC(=O)CN)C(C)C)C(=O)N[C@H](C(N)=O)C(C)C: proteolytic stability “stable” (substrate, SDS-PAGE; 24 h, pH 7.4, 37 °C).
The stability time of CC[C@H](C)[C@H](NC(=O)[C@H](CCCNC(=N)N)NC(=O)[C@H](CCC(N)=O)NC(=O)[C@@H](NC(=O)[C@@H](NC(=O)[C@H](CCCNC(=N)N)NC(=O)[C@H](CCCCN)NC(=O)[C@H](Cc1ccccc1)NC(=O)CN)[C@@H](C)CC)C(C)C)C(=O)N[C@@H](CCCCN)C(=O)N[C@@H](CC(=O)O)C(=O)N[C@@H](Cc1ccccc1)C(=O)N[C@@H](CC(C)C)C(=O)N[C@@H](CCCNC(=N)N)C(=O)N[C@@H](CC(N)=O)C(=O)N[C@@H](CC(C)C)C(=O)N[C@H](C(N)=O)C(C)C is reported as less than 24 h (substrate, tricine SDS-PAGE; pH 8, 37 °C, added: peptide:protease 40:1).
CC(C)C[C@H](NC(=O)[C@H](C)NC(=O)[C@H](CC(N)=O)NC(=O)[C@H](CCC(=O)O)NC(=O)[C@@H](N)CCCCN)C(=O)N[C@@H](CC(C)C)C(=O)N[C@@H](CCCNC(=N)N)C(=O)N[C@@]1(C)CCCC=CCCC[C@@](C)(C(=O)N[C@@H](CC(=O)O)C(N)=O)NC(=O)[C@H](CC(=O)O)NC(=O)[C@H](CC(C)C)NC(=O)[C@H](CC(C)C)NC1=O has a half-life of 2460 min (substrate, HPLC; 0.5 mM, pH 7.4, 37 °C, added: proteinase K 0.0005%).
CC[C@H](C)[C@H](NC(=O)[C@H](CCC(=O)NCCOCCOCCOCCOC)NC(=O)[C@H](CC(N)=O)NC(=O)[C@H](Cc1ccccc1)NC(=O)[C@H](Cc1ccc(O)cc1)NC(=O)[C@H](Cc1ccc(O)cc1)NC(=O)[C@@H](NC(=O)[C@H](CCCNC(=N)N)NC(=O)CNC(=O)[C@H](CO)NC(=O)[C@H](CO)NC(=O)[C@H](CCCNC(=N)N)NC(=O)[C@H](CO)NC(=O)[C@H](CCSC)NC(=O)[C@H](CCCNC(=N)N)NC(=O)[C@H](CCCCN)NC(=O)[C@H](CCC(=O)O)NC(=O)[C@H](Cc1c[nH]c2ccccc12)NC(=O)CNC(=O)[C@@H]1CCCN1C(=O)[C@@H]1CCCN1C(=O)[C@H](CC(C)C)NC(=O)[C@@H](N)CCCCN)C(C)C)C(=O)N[C@H](C(=O)N[C@@H](CC(N)=O)C(=O)N[C@@H](C)C(=O)N[C@@H](CO)C(=O)N[C@@H](CCC(N)=O)C(=O)N[C@@H](Cc1ccccc1)C(=O)N[C@@H](CCC(=O)O)C(=O)N[C@@H](CCCNC(=N)N)C(=O)N1CCC[C@H]1C(=O)N[C@@H](CO)C(=O)NCC(=O)O)[C@@H](C)O: “ln rate constant ratio” 0.3 ± 0.3 (proteolysis, substrate, HPLC; room temperature; baseline: PEGylated over non-PEGylated variant, negative = more stable).
CC[C@H](C)[C@H](NC(=O)CNC(=O)[C@@H](NC(=O)[C@H](Cc1ccccc1)NC(=O)[C@H](Cc1ccc(O)cc1)NC(=O)[C@@H]1CCC(=O)NCC(=O)NCC(=O)N[C@@H](C)C(=O)NCC(=O)N[C@@H](Cc2cnc[nH]2)C(=O)N[C@@H](C(C)C)C(=O)N2CCC[C@H]2C(=O)N1)C(C)C)C(=O)NCC(=O)N[C@H](C(=O)N1CCC[C@H]1C(=O)N[C@H](C(=O)N[C@@H](CO)C(=O)N[C@@H](Cc1ccccc1)C(=O)N[C@@H](Cc1ccc(O)cc1)C(=O)NCC(=O)O)[C@@H](C)CC)[C@@H](C)O gave a remaining activity of 50% (concentration not given, 10 min, 60 °C, added: proteinase K up to 4 U/mL).
For CC[C@H](C)[C@H](NC(=O)[C@H](Cc1c[nH]cn1)NC(=O)[C@H](CC(N)=O)NC(=O)[C@H](Cc1ccccc1)NC(=O)[C@H](Cc1ccc(O)cc1)NC(=O)[C@H](Cc1ccc(O)cc1)NC(=O)[C@@H](NC(=O)[C@H](CCCNC(=N)N)NC(=O)CNC(=O)[C@H](CO)NC(=O)[C@H](CO)NC(=O)[C@H](CCCNC(=N)N)NC(=O)[C@H](CCn1cc(COCCOCCOCCOC)nn1)NC(=O)[C@H](CCSC)NC(=O)[C@H](CCCNC(=N)N)NC(=O)[C@H](CCCCN)NC(=O)[C@H](CCC(=O)O)NC(=O)[C@H](Cc1c[nH]c2ccccc12)NC(=O)CNC(=O)[C@@H]1CCCN1C(=O)[C@@H]1CCCN1C(=O)[C@H](CC(C)C)NC(=O)[C@@H](N)CCCCN)C(C)C)C(=O)N[C@H](C(=O)N[C@@H](CC(N)=O)C(=O)N[C@@H](C)C(=O)N[C@@H](CO)C(=O)N[C@@H](CCC(N)=O)C(=O)N[C@@H](Cc1ccccc1)C(=O)N[C@@H](CCC(=O)O)C(=O)N[C@@H](CCCNC(=N)N)C(=O)N1CCC[C@H]1C(=O)N[C@@H](CO)C(=O)NCC(=O)O)[C@@H](C)O, “ln rate constant ratio” read -0.7 ± 0.4 (proteolysis, substrate, HPLC; room temperature; baseline: PEGylated over non-PEGylated variant, negative = more stable).
For CC(C)C[C@H](NC(=O)[C@H](CCCCN)NC(=O)[C@H](CCCNC(=N)N)NC(=O)[C@@H](CC(C)C)NC(=O)[C@H](Cc1c[nH]c2ccccc12)NC(=O)[C@H](CC(=O)O)NC(=O)[C@H](CCCCN)NC(=O)[C@@H](CC(C)C)NC(=O)[C@H](CCCNC(=N)N)NC(=O)[C@H](CCC(N)=O)NC(=O)[C@@H](NC(=O)[C@@H](CC(C)C)NC(=O)[C@H](CCCNC(=N)N)NC(=O)[C@H](CCCCN)NC(=O)[C@H](Cc1ccc(C(C)(C)C)cc1)NC(=O)CN)C(C)C)C(=O)N[C@H](C(N)=O)C(C)C, proteolytic stability read “stable” (substrate, SDS-PAGE; 24 h, pH 7.4, 37 °C).
With CC(=O)N[C@H]1[C@@H](O[C@H](C)[C@H](NC(=O)[C@H](CC(=O)O)NC(=O)[C@@H]2CCCN2C(=O)C[C@H](C)NC(=O)[C@H](CO)NC(=O)[C@@H](NC(=O)[C@@H](NC(=O)CCNC(=O)[C@H](Cc2c[nH]cn2)NC(=O)[C@H](C)NC(=O)[C@@H](N)CS)C(C)C)[C@@H](C)O)C(=O)N[C@@H](CCCNC(=N)N)C(=O)N2CCC[C@H]2C(=O)N[C@@H](C)C(=O)N2CCC[C@H]2CC(=O)NCC(=O)N[C@@H](CO)C(=O)N[C@H](C(=O)N[C@@H](C)CC(=O)N2CCC[C@H]2C(=O)N2CCC[C@H]2C(N)=O)[C@@H](C)O)O[C@H](CO)[C@H](O)[C@@H]1O the half-life was 32 min (UPLC; DPBS; 200 µM, added: proteinase K 5 µg/mL).
CC[C@H](C)[C@H](NC(=O)[C@H](Cc1c[nH]cn1)NC(=O)[C@H](CC(N)=O)NC(=O)[C@H](Cc1ccccc1)NC(=O)[C@H](Cc1ccc(O)cc1)NC(=O)[C@H](Cc1ccc(O)cc1)NC(=O)[C@@H](NC(=O)[C@H](CCCNC(=N)N)NC(=O)CNC(=O)[C@H](CO)NC(=O)[C@H](CO)NC(=O)[C@H](CCCNC(=N)N)NC(=O)[C@H](CO)NC(=O)[C@H](CCSC)NC(=O)[C@H](CCCNC(=N)N)NC(=O)[C@H](CCCCN)NC(=O)[C@H](CCC(=O)O)NC(=O)[C@H](Cc1c[nH]c2ccccc12)NC(=O)CNC(=O)[C@@H]1CCCN1C(=O)[C@@H]1CCCN1C(=O)[C@H](CC(C)C)NC(=O)[C@@H](N)CCCCN)C(C)C)C(=O)N[C@H](C(=O)N[C@@H](CC(N)=O)C(=O)N[C@@H](C)C(=O)N[C@@H](CCn1cc(COCCOCCOCCOC)nn1)C(=O)N[C@@H](CCC(N)=O)C(=O)N[C@@H](Cc1ccccc1)C(=O)N[C@@H](CCC(=O)O)C(=O)N[C@@H](CCCNC(=N)N)C(=O)N1CCC[C@H]1C(=O)N[C@@H](CO)C(=O)NCC(=O)O)[C@@H](C)O — result for “ln rate constant ratio”: -0.2 ± 0.2 (proteolysis, substrate, HPLC; room temperature; baseline: PEGylated over non-PEGylated variant, negative = more stable).
Under “time to complete degradation”, O=C(Cc1ccc2ccccc2c1)N[C@@H](Cc1ccccc1)C(=O)N[C@@H](Cc1ccccc1)C(=O)O is recorded as no more than 4 h (0.02 wt% hydrogelator).

Excerpt of the above:
CC[C@H](C)[C@H](NC(=O)CNC(=O)[C@@H](NC(=O)[C@H](Cc1ccccc1)NC(=O)[C@H](Cc1ccc(O)cc1)NC(=O)[C@@H]1CCC(=O)NCC(=O)NCC(=O)N[C@@H](C)C(=O)NCC(=O)N[C@@H](Cc2cnc[nH]2)C(=O)N[C@@H](C(C)C)C(=O)N2CCC[C@H]2C(=O)N1)C(C)C)C(=O)NCC(=O)N[C@H](C(=O)N1CCC[C@H]1C(=O)N[C@H](C(=O)N[C@@H](CO)C(=O)N[C@@H](Cc1ccccc1)C(=O)N[C@@H](Cc1ccc(O)cc1)C(=O)NCC(=O)O)[C@@H](C)CC)[C@@H](C)O gave a remaining activity of 50% (concentration not given, 10 min, 60 °C, added: proteinase K up to 4 U/mL).
